{"data": "Measured values collected from several papers", "organism": "Salmonella typhimurium", "note": "Protocols differ between the studies behind these lines. ± gives the spread as reported."}
{"Compound": "CC(C)N(C)N=O", "test": "mutagenicity, Ames plate incorporation", "test system": "TA1535", "conditions": "2500 µg/plate, 3 d, without S9, methanol", "measurement": "revertant colonies per plate", "value": "25.7 ± 7"}
{"Compound": "Fc1ccc(C2=CCNCC2)cc1", "test": "SOS/umu test", "test system": "TA1535/pSK1002", "conditions": "0.004 mg/mL, 4 h, with S9, full range", "measurement": "survival", "value": "94.2%"}
{"Compound": "CN(CC(C)(C)C)N=O", "test": "mutagenicity, Ames plate incorporation", "test system": "TA1535", "conditions": "50 µg/plate, without S9, methanol", "measurement": "revertant colonies per plate", "value": "25 ± 11"}
{"Compound": "N#C[C@@]1(n2ccc(N)nc2=O)O[C@H](CO)[C@@H](O)[C@H]1O", "test system": "TA100", "conditions": "10 µM, without S9", "how to read": "reference: control", "measurement": "viability", "value": "99%"}
{"Compound": "O=[N+]([O-])c1ccc(N2CCN(CCC(O)c3ccc(F)cc3)CC2)c(C(F)(F)F)c1 (stereo not drawn)", "test": "genotoxicity, SOS/umu test", "test system": "TA1535/pSK1002", "conditions": "0.002 mg/mL, 4 h, without S9, full range", "measurement": "induction factor", "value": 1.1}
{"Compound": "COc1cccc(-c2n[nH]c(SCc3ccccn3)n2)c1OC", "test": "Ames test, plate incorporation", "test system": "TA1537", "conditions": "1.0 mg/plate, with rat liver S9", "measurement": "revertant colonies per plate", "value": 8}
{"Compound": "O=NN1CCN(C2CCCC2)CC1", "test": "mutagenicity, Ames plate incorporation", "test system": "TA1537", "conditions": "2500 µg/plate, 3 d, without S9, methanol", "measurement": "revertant colonies per plate", "value": "10.3 ± 3"}
{"Compound": "Cc1cc(C(=O)NC(C)(C)COc2cccc3c2C(N)=NS(=O)(=O)N3)cc(C)n1", "test": "Ames test, confirmatory", "test system": "TA1535", "conditions": "1000 µg/plate, together with: rat liver S9", "how to read": "reference: solvent control", "measurement": "revertant ratio", "value": 0.9}
{"Compound": "O=[N+]([O-])c1ccc(N2CCC(NCCC(O)c3ccc(F)c4ccccc34)CC2)c(C(F)(F)F)c1 (stereo not drawn)", "test": "SOS response, SOS/umu test", "test system": "TA1535/pSK1002, TGA medium", "conditions": "3.05e-05 mg/mL, 4 h, without S9", "how to read": "reference: untreated", "measurement": "induction factor", "value": 0.6}
{"Compound": "CC(=O)N1CCC(C(=O)N2CCN3C(=O)c4cc(-c5ccccc5)ccc4NC(=O)C3C2)CC1 (stereo not drawn)", "test system": "TA98", "conditions": "15.8 µg/plate, together with: rat liver S9", "how to read": "reference: vehicle", "measurement": "fold increase in revertants", "value": 1}
{"Compound": "OC(CCN1CC=C(c2ccc(F)cc2)CC1)c1ccc(F)c2ccccc12 (stereo not drawn)", "test": "SOS/umu test", "test system": "TA1535/pSK1002", "conditions": "0.031 mg/mL, 4 h, without S9, full range", "measurement": "survival", "value": "27.4%"}
{"Compound": "CN(N=O)c1ccc(F)cc1", "test": "mutagenicity, Ames plate incorporation", "test system": "TA98", "conditions": "5000 µg/plate, 3 d, without S9, methanol", "measurement": "revertant colonies per plate", "value": "10.7 ± 3"}
{"note": "Repeated from above:"}
{"Compound": "O=[N+]([O-])c1ccc(N2CCN(CCC(O)c3ccc(F)cc3)CC2)c(C(F)(F)F)c1 (stereo not drawn)", "test": "genotoxicity, SOS/umu test", "test system": "TA1535/pSK1002", "conditions": "0.002 mg/mL, 4 h, without S9, full range", "measurement": "induction factor", "value": 1.1}
